Measurements from different studies.
Parts stem from different laboratories: compare values within a part only.

Series 1
Target: Protein max, full length (MAX, Homo sapiens, UniProt P61244-2, residues 1-151)
Technique: protein-binding microarray
Molecule type: double-stranded DNA, one strand shown
Medium: in vitro
Tested at: not given
Setting: k-mer, scored over probes, only values ≥0.25
Direction: higher = stronger binding
The E-score of `AACCACGC` is reported as 0.448.
`ACGTGTTC` gave an E-score of 0.461.
For `ACCCACCC`, the E-score was 0.32.
For `GTGCAGCA`, the E-score was 0.255.
The E-score of `AACGCGTG` is reported as 0.455.
With `AGCATGAT` the E-score was 0.4.
`CACTCATG` has an E-score of 0.267.
For `CGTGGCCC`, the E-score was 0.358.
With `GCATGCAA` the E-score was 0.376.
`CATATGGA` gave an E-score of 0.269.
The E-score of `CGCGTCAC` is reported as 0.264.
`ACTCACGC` has an E-score of 0.326.
`ATGCCACG` has an E-score of 0.399.

Series 2
Target: RNA binding protein fox-1 homolog 2, RRM domain, GST-SBP tag (RBFOX2, Homo sapiens, UniProt O43251-10, residues 100-194)
Technique: RNA Bind-n-Seq
Molecule type: RNA
Medium: in vitro
Tested at: 365 nM
Setting: natural RNA segment, single round, ends assumed
Reference: no-protein control
Direction: higher = stronger binding
Target sequence (chain): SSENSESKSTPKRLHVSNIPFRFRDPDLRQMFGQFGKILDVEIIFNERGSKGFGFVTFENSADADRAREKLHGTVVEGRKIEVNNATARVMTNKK
Under “RBNS enrichment (R)”, `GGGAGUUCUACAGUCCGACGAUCCCACGCAGCCGCCUGCCCGGGAGAACCCUGCCUGAAGCUCUGGAAACUUGUGGGUGGGGCCCAGGGAGAUGGGGAGGGAGUGGCCCAGGCCUGCCCCUUCGCUCCUGCCUUGGAAUUCUCGGGUGCCAA` is recorded as 0.378.
Under “RBNS enrichment (R)”, `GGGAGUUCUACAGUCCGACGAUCCCAUGGGCUGCUGCUUCCUCUUGCCUUAAAAGUACACUCUCCAGGUGUGUCAGGGACUCUGUUUACUUGAAGACUGUGUGCAGUUGCCAGUUCGUCUCCCUGCUGUCUUUUGGAAUUCUCGGGUGCCAA` is recorded as 0.379.
For `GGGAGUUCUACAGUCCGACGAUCCCGACUCCUCCCUGAGCCAGCCUCCGCUCAGUGUGGCUCCUCAGCCCACAGAGGGGAGGGAGCAUGGGGCCAGGUGCCAGUCAUCUGUGAAGCUAGGGCGCCUACCCCCCUGGAAUUCUCGGGUGCCAA`, “RBNS enrichment (R)” read 0.8.
`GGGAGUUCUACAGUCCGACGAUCGCGUUUCUGAUGGAAACAGUUUGGAUUGUAUAAUAACGCCAAGCCCAGUUGUAGUCGUUUGAGUGCAGUAAUGAAAUCUGAAUCUAAAAUAAAAACAAGAUUAUUUUUGUUGGAAUUCUCGGGUGCCAA` — result for “RBNS enrichment (R)”: 0.399.
Under “RBNS enrichment (R)”, `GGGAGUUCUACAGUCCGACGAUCGAGUUUGAGGCUUGCAGUUGCAACAGCUGGAUGUUUGGUGGUUCUUGCUGCCAGCCAAAUAAAUUGGUGUUUAGUGAACAUUUUCAGUGUUUCCCCGCCAUGCAAAGCUUUGGAAUUCUCGGGUGCCAA` is recorded as 0.568.
`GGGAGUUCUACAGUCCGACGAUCCCAACCUGGUAAAACUCCACUUCAGAUGGACCUGAGACCACAUCUGGCUGCGCCAAUGCCCCAGCUGCUUUGUGGGCAGGCUCUACUAGUUGGCGAGGCACCUGCACAUUUGGAAUUCUCGGGUGCCAA`: “RBNS enrichment (R)” 0.636.
`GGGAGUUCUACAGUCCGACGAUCUGUCUACAAGAAUAAGUUUGUUUUGGAAAGUUGAGCUAUAGCUACAGCUCUAGCUAUCCAGCAGACUUUUCAUUAUGACUUACAUGGCAGGAGCUCUAAUUAUGCUUUAAUGGAAUUCUCGGGUGCCAA`: “RBNS enrichment (R)” 0.351.
`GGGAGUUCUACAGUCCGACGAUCUUUAUCCAUAUAACUUCUCUUCUGAAAACUGAGGAGUGUCCUCUGUUCUUCCAGUUCACGAGGGCAGGGGGUUUAAAACAAGAAUGAUAGGCCAGGAAGGCAGUGGGGAUUGGAAUUCUCGGGUGCCAA`: “RBNS enrichment (R)” 0.675.
`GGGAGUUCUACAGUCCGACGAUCAGACACCACUAGCUGGAUAUUUCACAGGCAUCUUUGAUUCAAUAUGUCCAAAGUGGAACUCUCCAUCUACCUCCCUCACAUGAACCUGUUCCUCUCUCAGGAUCUGUAUGUGGAAUUCUCGGGUGCCAA` — result for “RBNS enrichment (R)”: 0.398.
For `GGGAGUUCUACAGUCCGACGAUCCUAUGGUUAUAGACACCCACUUCAGACAUUACCAAGAGUCGAUCACUGACUUAAAAAUUUUAAUUUCUAUAGUUAAGAUUUACAACAUAAUAUAGAGUGAAAGUUAACAUUGGAAUUCUCGGGUGCCAA`, “RBNS enrichment (R)” read 0.43.
For `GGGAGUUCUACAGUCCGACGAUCAAUGGAAAUCCCUUGACAUCUACUACCUCUUCCCCUUCUCUCUGAAACAGCUGCCUUAGCUUCAGGAACCUUGAGUACUGUGGGCAAUUUAGAAAACGGAAAUGCAGUUUUGGAAUUCUCGGGUGCCAA`, “RBNS enrichment (R)” read 0.304.
`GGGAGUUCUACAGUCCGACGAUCUAACUGUGGUGUUAUGUAAAUAAAAUUAGUAAUAAUCAGGCUUUAGAACUGCUUUCCUAUAUUUAUUUCUUGAUAUUUGAGUAAGGGAUCUGAAUAAACAACCCCAGCCCUGGAAUUCUCGGGUGCCAA`: “RBNS enrichment (R)” 0.461.

Series 3
Target: RING finger protein unkempt homolog, zinc fingers 1-6, GST-SBP tag (UNK, Homo sapiens, UniProt Q9C0B0, residues 30-357)
Sequence of UniProt Q9C0B0 (30-357, looked up): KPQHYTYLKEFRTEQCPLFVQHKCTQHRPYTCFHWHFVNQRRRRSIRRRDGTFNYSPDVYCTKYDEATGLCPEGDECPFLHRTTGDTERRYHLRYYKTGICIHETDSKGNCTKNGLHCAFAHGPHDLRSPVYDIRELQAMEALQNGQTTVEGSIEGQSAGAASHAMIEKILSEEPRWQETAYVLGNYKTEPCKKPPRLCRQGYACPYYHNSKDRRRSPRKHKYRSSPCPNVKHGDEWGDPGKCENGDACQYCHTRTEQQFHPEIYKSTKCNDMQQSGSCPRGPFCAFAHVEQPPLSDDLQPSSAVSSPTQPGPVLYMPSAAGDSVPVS
Technique: RNA Bind-n-Seq
Molecule type: RNA
Medium: in vitro
Tested at: not given
Setting: RNA with constant flanks, ends assumed
Reference: input RNA pool
Direction: higher = stronger binding
`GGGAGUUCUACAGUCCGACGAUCAUGAACCUACAAAUAGUUGACAGAGCCAUUCAGGUAGUUCGAAGUGCUUUAGCUAACCAGACCGAUUGGACAGAAAUUGGGUUAAUUGUGAAAGAAGCCCAGGCUCAAGGAGACCCUGUUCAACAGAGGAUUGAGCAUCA` gave a bound/input enrichment of 0.236 ratio.
`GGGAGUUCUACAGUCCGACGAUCGGUGGGACGGAAAAGACAUCACAGUAUGCAGGAAGGCUUGGGUUUGCUCAAAGUACCAGGUACCGGGAUGAACCUCUGAUGGGCUCUCUGCCCUAGAGUUGGGCAGCCUUCUCACCCCAGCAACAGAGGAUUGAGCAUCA` has a bound/input enrichment of 0.187 ratio.
The bound/input enrichment of `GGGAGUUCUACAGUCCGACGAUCAAGCCUCCAAAGCGGAAGAAGGCAGACACUGAGGGGAAGUCCCCAUCUCACAGUUCUUCUAACCGACCUUUCACCCCACCUACCAGCACGGGUGGGUCCAAAUCCCCAGGCAGUUCAGGACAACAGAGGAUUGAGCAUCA` is reported as 0.15 ratio.
With `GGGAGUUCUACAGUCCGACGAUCUCCCUGUGCUUACUAAAUGAUUUGUGAAGAACUGUCCCCAAGUUGUAACCCAUGUACUCCCUCCGAGUUGCUGCAAAAUGUCUCUUAUAUUGAUGUUGUUUGUUUACCUGACUCUCCAUACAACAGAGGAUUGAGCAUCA` the bound/input enrichment was 0.934 ratio.
`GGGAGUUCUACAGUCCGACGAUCGCUCCCACUGCAGCCUCGAGUGCCCCUGUCCCACCUGGCUCCCCCUGCUGGUGUCCCGUGUUUUUUUCCCUCUCCUGUCCUUGUGUUGAAGGCAGUAAACUAAGGGUGUCAAGCCCCAUUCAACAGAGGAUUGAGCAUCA` gave a bound/input enrichment of 0.592 ratio.
The bound/input enrichment of `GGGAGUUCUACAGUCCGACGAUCAAUCAGGCAAAGAAAGGUAGUGCAAGUUGUGGGACCAGUUUUCGAGGAACAGUUGGACGGACCCGAGAUUACACUGUUUUACAUCCAUCUUGCUUGUCAGUGUGUAAUGUUACCAUCCAGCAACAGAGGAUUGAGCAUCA` is reported as 0.132 ratio.
`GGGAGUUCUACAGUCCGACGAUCAUCUCUUUUCCCCUGUCCUGAUUUUAAAAGCCCCCUCCUUUUUUUUUUUUUUUUUCUUUUUUCCGGCAUAUGUAGUAAUAUUAGAAACAUUUAAUUUGGGAAACUUUGAUUCUUGAAAGACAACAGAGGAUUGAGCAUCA` gave a bound/input enrichment of 7.93 ratio.

Series 4
Target: Sal-like protein 4, full length isoform A (SALL4, Homo sapiens, UniProt Q9UJQ4, residues 1-1053)
Sequence of UniProt Q9UJQ4 (whole entry, looked up): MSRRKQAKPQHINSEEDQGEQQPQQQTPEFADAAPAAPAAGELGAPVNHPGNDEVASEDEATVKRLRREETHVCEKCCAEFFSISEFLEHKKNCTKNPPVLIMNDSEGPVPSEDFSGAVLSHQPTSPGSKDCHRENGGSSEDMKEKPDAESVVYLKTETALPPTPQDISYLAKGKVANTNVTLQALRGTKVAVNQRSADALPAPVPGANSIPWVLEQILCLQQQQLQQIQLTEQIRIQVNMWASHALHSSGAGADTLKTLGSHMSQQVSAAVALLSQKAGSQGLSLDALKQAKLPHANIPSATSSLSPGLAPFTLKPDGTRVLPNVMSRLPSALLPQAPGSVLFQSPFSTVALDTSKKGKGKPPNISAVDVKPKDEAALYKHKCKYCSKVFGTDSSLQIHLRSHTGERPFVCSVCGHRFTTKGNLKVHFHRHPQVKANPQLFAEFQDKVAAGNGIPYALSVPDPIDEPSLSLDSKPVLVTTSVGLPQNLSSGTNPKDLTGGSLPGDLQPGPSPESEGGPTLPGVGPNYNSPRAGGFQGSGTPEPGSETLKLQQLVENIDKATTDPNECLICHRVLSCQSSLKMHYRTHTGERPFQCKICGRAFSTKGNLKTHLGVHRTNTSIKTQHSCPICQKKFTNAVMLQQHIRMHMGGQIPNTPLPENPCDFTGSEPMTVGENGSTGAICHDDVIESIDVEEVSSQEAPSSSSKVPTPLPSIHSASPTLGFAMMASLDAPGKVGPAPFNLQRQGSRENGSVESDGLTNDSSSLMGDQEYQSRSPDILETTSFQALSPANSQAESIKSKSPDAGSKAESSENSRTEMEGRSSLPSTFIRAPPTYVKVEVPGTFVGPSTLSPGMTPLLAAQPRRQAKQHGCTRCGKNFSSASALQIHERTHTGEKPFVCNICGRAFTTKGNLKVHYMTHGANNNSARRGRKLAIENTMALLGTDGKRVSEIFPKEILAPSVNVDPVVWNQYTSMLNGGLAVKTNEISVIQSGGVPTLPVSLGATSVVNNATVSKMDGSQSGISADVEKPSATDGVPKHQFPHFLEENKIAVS
Technique: universal PBM
Molecule type: double-stranded DNA, one strand shown
Medium: in vitro
Tested at: 600 nM
Setting: 8-mer, flanks averaged, mean of replicates
Direction: higher = stronger binding
The E-score of `CAGGTGAA` is reported as 0.0716.
The E-score of `AGGAGCAA` is reported as -0.0658.
With `ATTTCCCA` the E-score was 0.142.
With `GAGAAGCA` the E-score was -0.0342.
`CCATACAG` has an E-score of -0.00065.
`ATTGCGAC` gave an E-score of 0.0541.
For `ACACACGT`, the E-score was 0.0336.
With `AACTATCA` the E-score was 0.262.
For `CTCTATCC`, the E-score was -0.116.
The E-score of `ATGGTGGA` is reported as -0.0595.
`CGAATGTC` gave an E-score of 0.0331.
`ACGTTGGC` has an E-score of -0.0541.
`ATCGTTAC` gave an E-score of 0.11.
The E-score of `GGTCTTGA` is reported as -0.206.
The E-score of `ATCTAGGA` is reported as 0.0528.
`TAGTCCCA` has an E-score of -0.0189.
The E-score of `TAGCGGAA` is reported as -0.106.
For `ACACGGCC`, the E-score was -0.18.
With `AAGATATG` the E-score was 0.3.
`CCTGTGAA` has an E-score of 0.0166.
With `GCCCAGGA` the E-score was -0.288.
`ATTTAAAT` has an E-score of 0.366.
The E-score of `GGTCCCCA` is reported as -0.395.
With `ACATGCTC` the E-score was 0.0425.
For `CGGACCTC`, the E-score was -0.402.

Series 5
Target: Histone acetyltransferase KAT6A, winged helix 1, GST fusion (KAT6A, Homo sapiens, UniProt Q92794, residues 1-85)
Technique: protein binding microarray
Molecule type: double-stranded DNA, one strand shown
Medium: in vitro
Tested at: not given
Setting: 8-mer, flanks averaged, mean of 2 arrays, mostly near background
Reference: not given
Direction: higher = stronger binding
Target sequence (chain): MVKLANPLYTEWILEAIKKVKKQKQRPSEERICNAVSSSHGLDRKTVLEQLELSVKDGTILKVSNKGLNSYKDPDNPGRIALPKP
The E-score of `AGCTGCCA` is reported as -0.181.
`CAGAGCCA` gave an E-score of -0.226.
For `CCCCCGAG`, the E-score was 0.133.
For `CGGAGGAC`, the E-score was 0.194.
`GCAGCTAA` gave an E-score of -0.116.
`ATCGCTAC` has an E-score of 0.123.
`CTCTCTCC` gave an E-score of 0.00771.
With `ACCCAGAA` the E-score was -0.255.
The E-score of `GGTCGGTA` is reported as 0.158.
With `CGGTTGGC` the E-score was 0.102.
The E-score of `GATGGACA` is reported as -0.0287.
For `CATTAGAA`, the E-score was -0.14.
The E-score of `CAGCAATC` is reported as -0.134.
For `AATACCCC`, the E-score was 0.0889.
The E-score of `AAGGCGGT` is reported as 0.136.
The E-score of `ACTGGACT` is reported as -0.287.
With `GCCAATGA` the E-score was -0.264.
With `CCGGGCAC` the E-score was 0.256.
`CTAGTTCC` gave an E-score of -0.025.
With `CGTCTCGC` the E-score was 0.238.
With `GGACCCGA` the E-score was 0.135.
For `ACGGGGAG`, the E-score was 0.284.
The E-score of `ATGGCCAG` is reported as -0.0935.

Some of these lines once more (series 5):
For `CATTAGAA`, the E-score was -0.14.
The E-score of `CAGCAATC` is reported as -0.134.
For `AATACCCC`, the E-score was 0.0889.
The E-score of `AAGGCGGT` is reported as 0.136.
The E-score of `ACTGGACT` is reported as -0.287.
With `GCCAATGA` the E-score was -0.264.
